Measured values from different studies.
± marks the error that the study gave.
UniProt P08684, sequence (whole entry, looked up): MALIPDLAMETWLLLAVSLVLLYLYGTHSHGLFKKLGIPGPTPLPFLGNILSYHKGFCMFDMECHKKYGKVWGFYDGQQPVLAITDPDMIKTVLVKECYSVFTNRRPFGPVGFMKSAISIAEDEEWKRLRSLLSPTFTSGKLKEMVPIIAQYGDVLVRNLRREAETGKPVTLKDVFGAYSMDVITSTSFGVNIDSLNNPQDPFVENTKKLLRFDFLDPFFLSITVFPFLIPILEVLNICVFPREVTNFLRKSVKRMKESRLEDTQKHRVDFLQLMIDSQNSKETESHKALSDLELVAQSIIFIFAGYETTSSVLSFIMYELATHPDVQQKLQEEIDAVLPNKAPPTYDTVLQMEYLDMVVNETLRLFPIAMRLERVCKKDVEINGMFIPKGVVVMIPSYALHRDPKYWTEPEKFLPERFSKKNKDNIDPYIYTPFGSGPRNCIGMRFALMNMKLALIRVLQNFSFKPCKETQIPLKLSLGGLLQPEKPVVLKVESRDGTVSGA

Compound	tested on	test	system	conditions	scale	measurement	result
CCn1c(=O)c(-c2cc(NC(=O)Nc3ccccc3)c(F)cc2Br)cc2cnc(NC)cc21		item: gastrointestinal disorders	healthy human, matched to mild hepatic impairment	oral, 50 mg single dose		participants with drug-related TEAE	12.5%
CC[C@H](C)[C@H](NC(=O)CN)C(=O)N[C@@H](CCCNC(=N)N)C(=O)N[C@@H](CCCNC(=N)N)C(=O)N[C@@H](Cc1ccccc1)C(=O)N[C@@H](CC(C)C)C(=O)N[C@@H](CCCNC(=N)N)C(=O)N[C@]1(C)CCCCCCC=CCCC[C@@](C)(C(=O)N[C@@H](Cc2ccccc2)C(=O)N[C@@H](CCCNC(=N)N)C(N)=O)NC(=O)[C@H](CCCNC(=N)N)NC(=O)[C@H](C(C)C)NC(=O)[C@H](Cc2ccccc2)NC(=O)[C@H](CCCNC(=N)N)NC(=O)[C@H](CCCNC(=N)N)NC(=O)[C@H](C)NC1=O		UPLC	TFA water/acetonitrile gradient		longer = more hydrophobic	retention time	2.75 min
O=C1c2cccc(O)c2C(=O)c2c(O)cc(CO)cc21	HK-2 co-cultured with HepaRG	MTT		16.67 µM, 24 h	reference: untreated control	viability	97.1 ± 17.2%
Cc1cc(-c2nccc3c2ccn3CC(=O)Nc2ccc(-c3cnccn3)cn2)ccn1			human	20 mg once daily, multiple ascending dose		subjects with Costochondritis adverse event	0%
CC[C@H](C)[C@H](NC(=O)[C@H](CCCNC(=N)N)NC(=O)[C@H](CCC(=O)O)NC(C)=O)C(=O)N[C@H]1CSSC[C@@H](C(=O)N[C@H](C(N)=O)[C@@H](C)O)NC(=O)[C@H](CCCNC(=N)N)NC(=O)[C@H](Cc2c[nH]cn2)NC(=O)[C@H](Cc2cccc3ccccc23)NC(=O)CNC(=O)[C@H](Cc2c[nH]c3ccccc23)NC(=O)[C@H](CC(=O)O)NC(=O)[C@H](CCC(N)=O)NC(=O)[C@H](Cc2cccc3ccccc23)NC(=O)[C@H](C(C)C)NC1=O		isocratic RP-HPLC, C18	32% acetonitrile, phosphate pH 7.4, 1% TFA	25 °C		retention factor	3.269 ± 0.004
Cc1ccc(C(=O)N(CCCN)C(c2nc3snc(C)c3c(=O)n2Cc2ccccc2)C(C)C)cc1 (centres unmarked)		item: Dysphagia	human patients	intravenous, dose not given, CTCAE grade ≥3, all doses		patients with adverse events	5%
C=C1C[C@@]23C=CC(=O)[C@@](C)(CCC(=O)Nc4c(O)ccc(C(=O)O)c4O)[C@@H]2C[C@@H]1CC3			C57BL/6 mice, male, plasma	intravenous, 3 mg/kg		clearance	23 mL/min/kg
O=C1NCCc2nc(OCc3cccc(F)c3)ccc21		item: Writhing	Sprague-Dawley rat, male	oral, 100 mg/kg, 1 h, score 0 none to 2 full	direction not given	Irwin test score	0
Cc1ccc([C@@H]2O[C@H](CO)[C@@H](O)[C@H](O)[C@H]2O)cc1Cc1ccc(-c2ccc(F)cc2)s1			Japanese type 2 diabetes patients	400 mg, day 6, 24 h urine collection	reference: baseline	urinary potassium excretion change	-4.63 mEq
CCN1/C(=C/C(C)=O)Sc2ccc(F)cc21			cynomolgus monkey	oral, 30 mg/kg, 6 h post-dose	reference: pre-dose	diastolic blood pressure change	101 ± 1.3%
CC(=O)N[C@@H](CS)C(=O)O						pulmonary solubility	670 µg/mL
CNC(=O)c1cc(Oc2ccc(NC(=O)Nc3ccc(Cl)c(C(F)(F)F)c3)c(F)c2)ccn1			FaSSIF	literature solubility over dose		dose-adjusted solubility	9.7e-05 mL⁻¹
O=C(Nc1nc2cccc(-c3ccc(CN4CCS(=O)(=O)CC4)cc3)n2n1)C1CC1		item: pyrexia	rheumatoid arthritis patients	oral, 200 mg once daily, 4 weeks, any relatedness		treatment-emergent adverse events	8.3%
CCNCCCn1c2c(c3cc(OC)c(OC)cc3c1=O)C(=O)c1cc3c(nc1-2)OCO3			male CD1 mouse, plasma	oral, 10 mg/kg		dose-normalized AUC(0-t)	20.2 ng·h/mL
CC[C@@H]1CN(C(=O)NCC(F)(F)F)C[C@@H]1c1cnc2cnc3[nH]ccc3n12		population PK model	healthy, RA and CD subjects, plasma	oral, immediate-release formulation	reference: females over males	Vc/F ratio	0.748
CC(C(=O)NCC(=O)NCC(CNC(=O)CNC(=O)C(C)N1CCN(CC(=O)[O-])CCN(CC(=O)[O-])CCN(CC(=O)[O-])CC1)(CNC(=O)CNC(=O)C(C)N1CCN(CC(=O)[O-])CCN(CC(=O)[O-])CCN(CC(=O)[O-])CC1)CNC(=O)CNC(=O)C(C)N1CCN(CC(=O)[O-])CCN(CC(=O)[O-])CCN(CC(=O)[O-])CC1)N1CCN(CC(=O)[O-])CCN(CC(=O)[O-])CCN(CC(=O)[O-])CC1.[Gd+3].[Gd+3].[Gd+3].[Gd+3] (centres unmarked)		ICP-MS	cynomolgus monkey	dose not given, 2 d, mass balance group	reference: dose	cumulative urinary excretion	99.5%
CCCCCN1C[C@H](O)[C@@H](O)[C@H](O)[C@@H]1CO		LC-MS/MS	Hexb-/- mice, total, brain	30 mg/kg/day		mean brain concentration	40 ng/g
COc1cc(Nc2ncc3c(n2)-c2ccc(Cl)cc2C(c2c(F)cccc2OC)=NC3)ccc1C(=O)O			human patients, plasma	oral, 40 mg, cycle 1 day 1, together with: pembrolizumab		AUC(0-12h)	3750 ng·h/mL
O=C(O)c1cc(O)c2c(c1)C(=O)c1cccc(O)c1C2=O	HK-2 co-cultured with HepaRG	MTT		16.67 µM, 24 h	reference: untreated control	viability	94.9 ± 20.9%
CCOCc1nc(O)c(-c2nnc(Cc3ccc(Cl)cn3)o2)c(O)c1-c1c(OC)cccc1OC			rat, anaesthetised, cannulated, plasma	intravenous infusion, 10 µg/kg/min, 5 min		plasma concentration	850 nM
CC(C)[C@@H](CN1CC[C@@](C)(c2cccc(O)c2)[C@@H](C)C1)NC(=O)[C@H]1Cc2ccc(O)cc2CN1			Sprague-Dawley rat, plasma	intraperitoneal, 10 mg/kg		AUCtotal	4420 ng·h/mL

Compound	tested on	test	system	conditions	scale	measurement	result
NC1(C(=O)N[C@@H](CCO)c2ccc(Cl)cc2)CCN(c2nc[nH]c3nccc2-3)CC1			metastatic CRPC patients	400 mg b.i.d., grade 3 to 4, treatment-related, together with: enzalutamide 160 mg daily		incidence of SIRS	0%
Cl.[2H]C([2H])([2H])CC(=O)c1cnc(NC(=O)C2CC2)cc1Nc1cccc(-c2ncn(C([2H])([2H])[2H])n2)c1OC			human, fasted, plasma	oral, 25 mg, single dose, liquid formulation		Cmax	272 ng/mL
CC[C@H]1[C@@H](O)[C@@H]2[C@H](CC[C@]3(C)[C@@H]([C@H](C)CCNC(=O)NS(=O)(=O)c4ccc(C(C)(C)C)cc4)CC[C@@H]23)[C@@]2(C)CC[C@@H](O)C[C@@H]12	Cytochrome P450 3A4 (CYP3A4, Homo sapiens, UniProt P08684)		human, plasma	10 mg, day 1, compound alone		AUC(0-t) mean	434 ng·h/mL
CC[C@H](C)[C@H](N)C(=O)N[C@H]1CSSC[C@@H](C(=O)N[C@H](C(N)=O)[C@@H](C)O)NC(=O)[C@H](CCCNC(=N)N)NC(=O)[C@H](Cc2c[nH]cn2)NC(=O)[C@H](Cc2c[nH]cn2)NC(=O)CNC(=O)[C@H](Cc2c[nH]c3ccccc23)NC(=O)[C@H](CC(=O)O)NC(=O)[C@H](CCC(N)=O)NC(=O)[C@H](C(C)C)NC(=O)[C@H](C(C)C)NC1=O		RP-HPLC, C18	28% acetonitrile isocratic	pH 7.4		retention factor	0.812 ± 0.013
Cc1cc(Nc2ncnc3ccc(NC4=NC(C)(C)CO4)cc23)ccc1Oc1ccn2ncnc2c1			human, plasma	oral, 300 mg, day 1, single dose alone		AUC(0-last), mean	2230 ng·h/mL
CNC(=O)c1ccc(-c2cnc3ncc(Cc4ccc5ncccc5c4)n3n2)cc1F			Japanese patients	oral, 400 mg, any grade		Pyelonephritis dose reduction/interruption	1%
Cc1nc2cccc(OCC(C)(C)C(=O)NC(C)C)c2c(N)c1C(=O)O			male Swiss albino CD-1 mouse, bone marrow	oral, 1000 mg/kg, 48 h		micronucleated NCE per 2000 PCE	0.9
NC(=O)c1[nH]cnc1N			leiomyosarcoma patients, plasma	intravenous, dose not given, cycle 2 day 1, together with: dacarbazine staggered	reference: cycle 1 day 1	AUC(0-24h) increase	58.6%
CN1CCCC1CCNS(=O)(=O)c1ccc2c(c1)CN(CC1CCCCC1)CC2 (centres unmarked)			mouse, brain	oral, 10 mg/kg		Tlast	24 h
O=C(NCCCNc1nc(Nc2cccc(NC(=O)N3CCCC3)c2)ncc1Br)C1CCC1		PAMPA	PBS	5 h, pH 7.4		effective permeability	0.885 ×10⁻⁶ cm/s
FC(F)(F)c1ccc(CNc2ccc(Cc3c[nH]c4ncc(Cl)cc34)cn2)cn1		item: Pruritus	patients with advanced solid tumours	oral, dose not given, grade 1 and 2, possibly related to drug		adverse event incidence	13%
C=CC(=O)Nc1cc(Nc2ncc(C(=O)OC(C)C)c(-c3cn(C)c4ccccc34)n2)c(OC)cc1N(C)CCN(C)C		two-compartment PK model	mouse			intercompartmental clearance	13 L/h
CCc1cc(C(=O)NC)c2nccc(N3CCc4c(cc(Cn5ccnc5)cc4-c4cn(C)nc4C(F)(F)F)C3=O)c2c1			Sprague Dawley rat, male, plasma	oral, 100 mg/kg twice daily, day 1		t1/2	1.7 h
C=CCN1CC(=O)N2[C@@H](Cc3ccc(O)cc3F)C(=O)N(Cc3cccc(N4CC(N5CCN(CC)CC5)C4)n3)C[C@@H]2N1C(=O)NCc1ccccc1		item: decreased appetite	human advanced solid tumours	concentration not given, expansion grade ≥3		treatment-related adverse events	0%
O=C(c1nc2n(n1)[C@H](c1ccccc1)C[C@@H]2F)C1CC1			human, fed	oral, 75 mg single dose, mean		urinary excretion Ae(0-72 h)	0.152 mg
O=C(Nc1ccc(OC(F)(F)Cl)cc1)c1cnc(N2CC[C@@H](O)C2)c(-c2ccn[nH]2)c1		per laboratory record, item: platelet decrease	human patients	oral, dose not given		grade ≥3 event rate	6%
CCc1nc(C(N)=O)c(Nc2ccc(N3CCC(N4CCN(C)CC4)CC3)c(OC)c2)nc1NC1CCOCC1			Japanese patients, plasma	oral, 80 mg, cycle 0 day -2, single dose, median		AUC(0-24)	1040 ng·h/mL
CCN1CCN(Cc2ccc(NC(=O)c3ccc(C)c(NC(=O)c4cncc(-c5cccs5)c4)c3)cc2C(F)(F)F)CC1			C57BL/6 mice, epithelial lining fluid	intraperitoneal, 30 mg/kg		mean residence time	3.39 h
CCCC1CCC(c2ccc(OCC)c(F)c2F)CC1 (centres unmarked)			rat, fetus	10 ng/mL in perfusate, low dose, mixture of 21 LCMs		fetal accumulation	0.176 ± 0.132 ng/g
O=C(O)CCC(=O)O.[2H]C([2H])([2H])Oc1cc(C)c2[nH]ccc2c1CN1CC[C@@H](C2CC2)C[C@H]1c1ccc(C(=O)O)cc1		multiple ascending dose	healthy Chinese subjects	200 mg once daily		subjects with TEAE Constipation	50%

For quick reference, copied from above:
Compound	tested on	test	system	conditions	scale	measurement	result
O=C(O)CCC(=O)O.[2H]C([2H])([2H])Oc1cc(C)c2[nH]ccc2c1CN1CC[C@@H](C2CC2)C[C@H]1c1ccc(C(=O)O)cc1		multiple ascending dose	healthy Chinese subjects	200 mg once daily		subjects with TEAE Constipation	50%
NC1(C(=O)N[C@@H](CCO)c2ccc(Cl)cc2)CCN(c2nc[nH]c3nccc2-3)CC1			metastatic CRPC patients	400 mg b.i.d., grade 3 to 4, treatment-related, together with: enzalutamide 160 mg daily		incidence of SIRS	0%
